# Experimental data pooled from the literature.
# Numbered parts are unrelated; each lists some results of a single study. Values joined by “and” are separate records of one study, mostly repeats; a detail may differ.
# Sequence of UniProt P47898 (whole entry, looked up): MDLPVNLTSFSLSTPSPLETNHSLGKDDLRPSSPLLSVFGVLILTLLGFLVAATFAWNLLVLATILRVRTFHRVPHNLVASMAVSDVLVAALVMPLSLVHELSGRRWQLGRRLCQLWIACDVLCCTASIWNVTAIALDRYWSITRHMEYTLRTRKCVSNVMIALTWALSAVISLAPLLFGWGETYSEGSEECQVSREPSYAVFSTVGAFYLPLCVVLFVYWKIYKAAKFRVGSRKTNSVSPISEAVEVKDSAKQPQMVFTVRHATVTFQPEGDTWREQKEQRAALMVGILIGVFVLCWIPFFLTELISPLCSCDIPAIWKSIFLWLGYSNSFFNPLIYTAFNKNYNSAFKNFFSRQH
# Sequence of UniProt P08173 (whole entry, looked up): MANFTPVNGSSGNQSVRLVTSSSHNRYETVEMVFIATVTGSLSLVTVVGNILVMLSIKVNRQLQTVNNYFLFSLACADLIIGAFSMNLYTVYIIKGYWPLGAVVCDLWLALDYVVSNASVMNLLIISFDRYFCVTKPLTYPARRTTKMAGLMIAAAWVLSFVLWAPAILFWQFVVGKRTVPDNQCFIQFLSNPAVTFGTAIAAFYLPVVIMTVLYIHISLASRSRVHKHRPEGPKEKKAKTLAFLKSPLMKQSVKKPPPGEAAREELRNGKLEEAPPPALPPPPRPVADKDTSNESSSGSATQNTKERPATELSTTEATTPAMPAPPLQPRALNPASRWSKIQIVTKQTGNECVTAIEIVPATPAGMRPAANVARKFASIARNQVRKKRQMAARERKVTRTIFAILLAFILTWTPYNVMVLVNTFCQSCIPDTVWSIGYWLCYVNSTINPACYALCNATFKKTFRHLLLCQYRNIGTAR
# Sequence of UniProt P08172 (whole entry, looked up): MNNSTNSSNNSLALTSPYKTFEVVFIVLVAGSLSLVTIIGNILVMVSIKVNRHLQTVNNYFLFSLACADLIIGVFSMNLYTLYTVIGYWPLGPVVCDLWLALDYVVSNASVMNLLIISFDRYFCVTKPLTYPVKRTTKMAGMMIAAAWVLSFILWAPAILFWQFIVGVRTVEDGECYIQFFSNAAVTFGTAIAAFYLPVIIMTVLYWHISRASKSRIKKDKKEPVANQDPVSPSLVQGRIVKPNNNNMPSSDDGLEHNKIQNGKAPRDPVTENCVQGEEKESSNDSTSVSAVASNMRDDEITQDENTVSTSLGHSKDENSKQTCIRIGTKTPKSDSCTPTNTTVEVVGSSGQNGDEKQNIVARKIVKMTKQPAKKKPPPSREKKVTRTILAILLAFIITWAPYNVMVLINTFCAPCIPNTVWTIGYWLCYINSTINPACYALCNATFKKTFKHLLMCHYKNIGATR
# Sequence of UniProt P35368 (whole entry, looked up): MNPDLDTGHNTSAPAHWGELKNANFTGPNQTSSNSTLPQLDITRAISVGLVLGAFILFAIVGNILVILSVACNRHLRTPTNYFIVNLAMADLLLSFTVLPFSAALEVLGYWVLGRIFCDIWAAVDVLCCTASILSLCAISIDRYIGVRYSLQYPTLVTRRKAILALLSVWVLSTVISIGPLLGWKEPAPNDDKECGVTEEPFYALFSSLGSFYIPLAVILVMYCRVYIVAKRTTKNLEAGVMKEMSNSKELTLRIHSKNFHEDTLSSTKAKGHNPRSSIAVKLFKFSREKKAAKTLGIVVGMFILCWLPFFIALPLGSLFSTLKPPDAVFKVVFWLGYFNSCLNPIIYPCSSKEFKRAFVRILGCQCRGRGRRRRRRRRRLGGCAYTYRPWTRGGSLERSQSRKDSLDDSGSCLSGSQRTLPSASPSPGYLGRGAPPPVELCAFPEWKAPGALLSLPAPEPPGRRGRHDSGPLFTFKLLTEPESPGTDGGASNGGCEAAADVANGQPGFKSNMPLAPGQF

# Study 1
# SMILES: CC(=O)C1=C(C)N(c2cccc(C(F)(F)F)c2)C(=O)N[C@@H]1c1ccc(C#N)nc1
# Read-out: binding
# Method: radioligand binding
# Concentration: 10 µM
target,inhibition [%]
"5-hydroxytryptamine receptor 5A (HTR5A, Homo sapiens, UniProt P47898)",4.22
"Alpha-1B adrenergic receptor (ADRA1B, Homo sapiens, UniProt P35368)",-1.17
"Alpha-2B adrenergic receptor (ADRA2B, Homo sapiens, UniProt P18089)",-1.73
"Histamine H1 receptor (HRH1, Homo sapiens, UniProt P35367)",34.1
"5-hydroxytryptamine receptor 7 (HTR7, Homo sapiens, UniProt P34969)",3.93
"Muscarinic acetylcholine receptor M4 (CHRM4, Homo sapiens, UniProt P08173)",-6.72
"D(1A) dopamine receptor (DRD1, Homo sapiens, UniProt P21728)",-8.4
"Muscarinic acetylcholine receptor M2 (CHRM2, Homo sapiens, UniProt P08172)",-12.5
"Alpha-1D adrenergic receptor (ADRA1D, Homo sapiens, UniProt P25100)",3.11
"5-hydroxytryptamine receptor 3A (HTR3A, Homo sapiens, UniProt P46098)",-7.63
"Beta-3 adrenergic receptor (ADRB3, Homo sapiens, UniProt P13945)",-0.551
"Histamine H2 receptor (HRH2, Homo sapiens, UniProt P25021)",14.5
"Histamine H4 receptor (HRH4, Homo sapiens, UniProt Q9H3N8)",25.9
"Alpha-2C adrenergic receptor (ADRA2C, Homo sapiens, UniProt P18825)",20.2

# Study 2
# Target: Ephrin type-A receptor 1 (EPHA1, Homo sapiens, UniProt P21709)
# Read-out: enzyme activity
# Action: inhibitor
# Concentration: 0.5 µM
# Baseline: control
# Residues (P21709 1-976): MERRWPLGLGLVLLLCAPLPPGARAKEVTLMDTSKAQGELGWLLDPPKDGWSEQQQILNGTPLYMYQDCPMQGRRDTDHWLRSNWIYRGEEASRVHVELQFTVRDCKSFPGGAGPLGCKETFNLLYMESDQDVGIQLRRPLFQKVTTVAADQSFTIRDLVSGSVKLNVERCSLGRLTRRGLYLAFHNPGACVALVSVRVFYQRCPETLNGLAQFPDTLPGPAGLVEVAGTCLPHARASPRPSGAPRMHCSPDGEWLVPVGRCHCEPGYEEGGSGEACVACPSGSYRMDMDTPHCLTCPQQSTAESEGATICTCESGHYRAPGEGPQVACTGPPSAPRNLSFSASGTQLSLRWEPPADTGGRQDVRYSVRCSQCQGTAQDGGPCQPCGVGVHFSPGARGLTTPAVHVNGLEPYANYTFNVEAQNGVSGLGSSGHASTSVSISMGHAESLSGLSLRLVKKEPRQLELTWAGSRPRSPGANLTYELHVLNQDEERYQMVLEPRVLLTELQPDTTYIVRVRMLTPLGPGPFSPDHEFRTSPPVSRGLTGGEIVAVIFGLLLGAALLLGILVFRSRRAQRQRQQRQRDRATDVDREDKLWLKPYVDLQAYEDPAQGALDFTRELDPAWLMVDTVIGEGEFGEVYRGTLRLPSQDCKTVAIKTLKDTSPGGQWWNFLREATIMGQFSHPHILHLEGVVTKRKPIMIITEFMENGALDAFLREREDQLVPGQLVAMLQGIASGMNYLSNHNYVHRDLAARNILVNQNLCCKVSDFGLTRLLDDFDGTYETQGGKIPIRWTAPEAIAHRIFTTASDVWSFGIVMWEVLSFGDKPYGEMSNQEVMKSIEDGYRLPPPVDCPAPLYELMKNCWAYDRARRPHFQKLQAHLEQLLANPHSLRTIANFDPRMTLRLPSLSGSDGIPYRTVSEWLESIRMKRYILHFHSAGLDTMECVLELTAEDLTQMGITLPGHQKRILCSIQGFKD
SMILES,remaining activity [%]
CC(C)n1cnc2c(Nc3cccc(Cl)c3)nc(NCCO)nc21,94.1
N#CC(c1ccnc(NCCc2cccnc2)n1)c1nc2ccccc2s1 (stereo not shown),95.5
CCN(CC)CCCCN1c2ccccc2Oc2ccc(Cl)cc21,90.5
NC(=O)c1ccc(-c2nc(-c3ccc4c(c3)OCCO4)c(-c3ccccn3)[nH]2)cc1,102
Clc1ccc(Nc2nnc(Cc3ccncc3)c3ccccc23)cc1,96
C[C@@H](N)[C@H]1CC[C@H](C(=O)Nc2ccncc2)CC1,102
O=C(c1ccccc1)c1ccc(N2CCOCC2)cc1O,89.1
O=Nc1c(-c2c(O)[nH]c3ccccc23)[nH]c2ccccc12,99.4
O=C(O)/C=C/c1cc(Br)c(Br)c(Br)c1Br,94.6
CC(C)(C)c1nc2c3cc[nH]c(=O)c3c3cc(F)ccc3c2[nH]1,80.5
CCCCc1c(-c2ccc(O)cc2)[nH]c2nccnc12,68.8
COc1cc2c(Nc3ccc(Br)cc3F)ncnc2cc1OCC1CCN(C)CC1,31.7
COc1cc2c(N3CCN(C(=O)Nc4ccc(OC(C)C)cc4)CC3)ncnc2cc1OCCCN1CCCCC1,96.1
CNc1cc2c(Nc3cccc(Br)c3)ncnc2cn1,103
NC(=O)c1cccc(-c2cc(Nc3ccc(OC(F)(F)F)cc3)ncn2)c1,90.1
O=C1NC(=O)/C(=C/c2ccc3c(c2)OC(F)(F)O3)S1,90.2
O=C1c2ccccc2-c2nc3nnnn3nc21,73.1
FC(F)(F)c1ccc(/C=C/c2nc(COc3ccc(CCCCn4ccnn4)cc3)co2)cc1,97.2
N#C/C(=C(/N)SC1C=CC=CC1)c1cccc(C(O)c2ccncc2)c1 (stereo not shown),91.1
Nc1nc(Nc2ccc(S(N)(=O)=O)cc2)nn1C(=S)Nc1c(F)cccc1F,37.4
c1cc(-c2cnn3cc(-c4ccc(OCCN5CCCCC5)cc4)cnc23)ccn1,31.4
CC(C)N(CCC(=O)c1ccc2ccccc2c1)Cc1ccccc1,92.4

# Study 3
# Target: Calcium/calmodulin-dependent protein kinase type II subunit alpha (CAMK2A, Homo sapiens, UniProt Q9UQM7)
# Sequence of UniProt Q9UQM7 (whole entry, looked up): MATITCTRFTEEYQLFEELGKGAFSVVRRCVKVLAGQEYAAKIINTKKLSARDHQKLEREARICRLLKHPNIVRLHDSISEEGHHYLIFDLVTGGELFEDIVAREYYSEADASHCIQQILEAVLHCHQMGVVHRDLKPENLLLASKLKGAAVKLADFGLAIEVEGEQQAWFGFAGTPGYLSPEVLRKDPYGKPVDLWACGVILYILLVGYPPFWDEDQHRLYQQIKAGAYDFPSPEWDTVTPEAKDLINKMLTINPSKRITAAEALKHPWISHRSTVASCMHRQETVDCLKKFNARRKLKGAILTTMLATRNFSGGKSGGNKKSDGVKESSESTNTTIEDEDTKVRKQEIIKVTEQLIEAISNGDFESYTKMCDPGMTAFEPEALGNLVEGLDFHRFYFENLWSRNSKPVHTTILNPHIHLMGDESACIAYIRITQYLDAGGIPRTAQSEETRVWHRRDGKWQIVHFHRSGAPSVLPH
# Read-out: enzyme activity
# Action: inhibitor
# Concentration: 10 µM
Structure (SMILES),inhibition
COc1ccc(-c2coc3cc(O)ccc3c2=O)cc1O,-8%
C=CC(=O)Nc1cccc(Oc2nc(Nc3ccc(N4CCN(C)CC4)cc3)nc3ccsc23)c1,3%
CCCSc1nc(N[C@@H]2C[C@H]2c2ccc(F)c(F)c2)c2nnn([C@@H]3C[C@H](OCCO)[C@@H](O)[C@H]3O)c2n1,-7%
CC(C)=CCc1c(O)ccc(C(=O)[C@@H]2[C@@H](c3c(O)cc(O)c4c(=O)c(CC=C(C)C)c(-c5ccc(O)cc5O)oc34)C=C(C)C[C@H]2c2ccc(O)cc2O)c1O,-16%
CC(C)(Oc1ccc(C(=O)c2ccc(Cl)cc2)cc1)C(=O)O,0.18% and 0%
O=C(O)C/C=C(\CC(=O)O)C(=O)O,3%
NC(=O)[C@@H]1CCCN1C(=O)[C@H](Cc1c[nH]cn1)NC(=O)[C@@H]1CCC(=O)N1,-8%
CC1CS(=O)(=O)CCN1/N=C/c1ccc([N+](=O)[O-])o1 (stereo not shown),-5%
CCCCC(=O)N(Cc1ccc(-c2ccccc2-c2nn[nH]n2)cc1)[C@H](C(=O)O)C(C)C,3%
C=CC(=C)CC/C=C(\C)CCC=C(C)C,-25%
CC(=O)OCC(=O)[C@@]1(O)CC[C@H]2[C@@H]3CCC4=CC(=O)C=C[C@]4(C)[C@H]3C(=O)C[C@@]21C,2%
CC(=O)Oc1ccc(C2CC(=O)c3c(OC(C)=O)cc(OC(C)=O)cc3O2)cc1 (stereo not shown),-26%
CCCOc1ccc(C(=O)OCCN(CC)CC)cc1N,-5%
C=C1C[C@@]23CC[C@H]4[C@@](C)(CCC[C@@]4(C)C(=O)O[C@@H]4O[C@H](CO)[C@@H](O)[C@H](O)[C@H]4O)[C@@H]2CC[C@]1(O[C@@H]1O[C@H](CO)[C@@H](O)[C@H](O)[C@H]1O[C@@H]1O[C@H](CO)[C@@H](O)[C@H](O)[C@H]1O)C3,22%
CC1(C)CC[C@]2(C)CC[C@]3(C)C(=CC[C@@H]4[C@@]5(C)CC[C@H](O)C(C)(C)[C@@H]5CC[C@]43C)[C@@H]2C1,3%
C=C1[C@H](CO)[C@@H](O)C[C@@H]1n1cnc2c(=O)[nH]c(N)nc21,-7%
COC(=O)c1ccc(OC)cc1,7%

# Study 4
# Target: DNA polymerase theta, ATPase domain (POLQ, Homo sapiens, UniProt O75417)
# Sequence of UniProt O75417 (whole entry, unmodified, looked up): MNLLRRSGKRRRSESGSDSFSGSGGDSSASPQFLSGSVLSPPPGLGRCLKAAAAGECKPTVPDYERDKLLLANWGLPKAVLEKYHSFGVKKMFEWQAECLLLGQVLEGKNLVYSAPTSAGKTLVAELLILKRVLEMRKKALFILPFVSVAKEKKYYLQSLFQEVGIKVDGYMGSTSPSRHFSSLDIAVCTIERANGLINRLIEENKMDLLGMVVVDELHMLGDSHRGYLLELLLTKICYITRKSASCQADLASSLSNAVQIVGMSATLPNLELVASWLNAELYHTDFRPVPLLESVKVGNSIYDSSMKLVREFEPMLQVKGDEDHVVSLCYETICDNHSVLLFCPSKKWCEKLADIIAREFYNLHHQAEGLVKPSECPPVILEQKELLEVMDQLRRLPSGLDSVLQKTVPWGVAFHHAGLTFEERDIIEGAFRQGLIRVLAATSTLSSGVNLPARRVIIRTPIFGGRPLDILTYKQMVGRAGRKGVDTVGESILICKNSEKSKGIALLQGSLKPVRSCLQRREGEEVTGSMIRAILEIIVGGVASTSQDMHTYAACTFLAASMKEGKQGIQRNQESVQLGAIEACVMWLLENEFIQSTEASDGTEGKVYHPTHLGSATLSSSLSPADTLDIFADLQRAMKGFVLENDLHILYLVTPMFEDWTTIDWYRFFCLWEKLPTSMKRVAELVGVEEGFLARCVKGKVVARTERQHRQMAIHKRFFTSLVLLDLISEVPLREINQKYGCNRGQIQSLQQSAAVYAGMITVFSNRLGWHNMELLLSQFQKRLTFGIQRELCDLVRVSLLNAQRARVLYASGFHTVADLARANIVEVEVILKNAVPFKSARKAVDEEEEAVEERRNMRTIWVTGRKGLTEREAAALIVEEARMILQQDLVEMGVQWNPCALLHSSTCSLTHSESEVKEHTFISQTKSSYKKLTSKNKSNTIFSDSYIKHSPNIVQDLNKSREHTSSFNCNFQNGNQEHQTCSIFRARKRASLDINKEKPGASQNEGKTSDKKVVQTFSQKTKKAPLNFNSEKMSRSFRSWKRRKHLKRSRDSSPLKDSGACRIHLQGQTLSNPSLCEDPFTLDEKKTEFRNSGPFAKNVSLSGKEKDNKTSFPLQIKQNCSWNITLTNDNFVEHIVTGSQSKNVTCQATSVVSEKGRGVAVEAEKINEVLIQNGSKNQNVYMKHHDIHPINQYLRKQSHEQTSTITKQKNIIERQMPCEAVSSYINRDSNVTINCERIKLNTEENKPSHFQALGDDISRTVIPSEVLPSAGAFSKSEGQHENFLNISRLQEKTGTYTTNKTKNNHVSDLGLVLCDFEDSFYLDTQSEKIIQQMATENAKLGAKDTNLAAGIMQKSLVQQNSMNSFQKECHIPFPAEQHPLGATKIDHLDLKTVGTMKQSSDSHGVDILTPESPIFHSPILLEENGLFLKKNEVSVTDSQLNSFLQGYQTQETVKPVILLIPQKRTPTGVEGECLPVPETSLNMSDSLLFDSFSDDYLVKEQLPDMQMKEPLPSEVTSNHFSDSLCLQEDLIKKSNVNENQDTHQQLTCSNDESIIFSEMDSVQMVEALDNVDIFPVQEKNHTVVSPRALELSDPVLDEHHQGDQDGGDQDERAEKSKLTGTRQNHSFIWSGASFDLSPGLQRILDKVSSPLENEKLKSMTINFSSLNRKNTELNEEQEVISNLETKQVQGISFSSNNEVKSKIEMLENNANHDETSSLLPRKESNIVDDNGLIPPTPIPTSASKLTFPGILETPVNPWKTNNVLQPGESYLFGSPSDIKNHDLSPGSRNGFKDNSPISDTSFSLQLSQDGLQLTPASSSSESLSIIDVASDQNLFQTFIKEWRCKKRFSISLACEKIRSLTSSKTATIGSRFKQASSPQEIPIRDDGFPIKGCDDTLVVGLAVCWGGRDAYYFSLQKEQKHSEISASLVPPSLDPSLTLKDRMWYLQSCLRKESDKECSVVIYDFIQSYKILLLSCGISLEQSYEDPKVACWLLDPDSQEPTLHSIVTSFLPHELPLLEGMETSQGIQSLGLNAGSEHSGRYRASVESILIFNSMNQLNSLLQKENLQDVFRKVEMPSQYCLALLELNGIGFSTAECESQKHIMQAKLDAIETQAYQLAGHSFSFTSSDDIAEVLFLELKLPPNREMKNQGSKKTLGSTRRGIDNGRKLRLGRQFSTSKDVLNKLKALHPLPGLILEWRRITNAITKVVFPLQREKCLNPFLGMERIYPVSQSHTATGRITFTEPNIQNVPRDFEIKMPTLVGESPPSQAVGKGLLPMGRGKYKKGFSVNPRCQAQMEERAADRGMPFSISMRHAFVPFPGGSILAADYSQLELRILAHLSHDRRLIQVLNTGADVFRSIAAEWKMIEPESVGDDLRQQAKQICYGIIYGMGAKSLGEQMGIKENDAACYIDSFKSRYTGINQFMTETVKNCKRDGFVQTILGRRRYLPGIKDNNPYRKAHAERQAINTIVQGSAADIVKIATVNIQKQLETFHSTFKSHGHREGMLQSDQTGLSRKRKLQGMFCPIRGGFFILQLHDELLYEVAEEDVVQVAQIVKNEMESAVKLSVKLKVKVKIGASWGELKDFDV
# Read-out: enzyme activity
# Action: inhibitor
# Concentration: 77 µM
# Baseline: untreated
SMILES,remaining activity
CN(C)c1ccc(C(=C2C=CC(=[N+](C)C)C=C2)c2ccc(N(C)C)cc2)cc1,85.2%
CC(=O)c1c(C)c2cnc(Nc3ccc(N4CCNCC4)cn3)nc2n(C2CCCC2)c1=O,84.3%
CN(C)CCCN1c2ccccc2Sc2ccc(Cl)cc21,107% and 141%
COc1c2occc2c(OC)c2c(=O)cc(C)oc12,98.1%
CCOC(=O)CCNc1cc(N2CCc3ccccc3CC2)nc(-c2ccccn2)n1,103%
O=C(Cc1ccc(-c2ccc(OCCN3CCOCC3)cc2)cn1)NCc1ccccc1,101%
O=C(O)c1cc(=O)[nH]c(=O)[nH]1,100%
NC(Cn1ccc(=O)c(O)c1)C(=O)O (stereo not shown),101%
CCCCN(CCCC)CCCOC(=O)c1ccc(N)cc1,97.8%
CC(C)NCCCn1c(Sc2cc3c(cc2I)OCO3)nc2c(N)ncnc21,93.7%
O=C1NC(=O)C(c2ccccc2)(c2ccccc2)N1,103%
CC(=O)Oc1ccccc1C(=O)Nc1ncc([N+](=O)[O-])s1,54%
O=c1ccc2ccccc2o1,96%
C[C@H](N)[C@H](O)c1cccc(O)c1,102%
CCN(CC)CCCN(c1ccccc1)C1Cc2ccccc2C1,99%
O=c1ccn([C@@H]2O[C@H](CO)[C@@H](O)[C@H]2O)c(=O)[nH]1,102%
Cc1ccc(C(=O)c2cc(O)c(O)c([N+](=O)[O-])c2)cc1,64%
C[C@H](CCC(=O)O)[C@H]1CC[C@H]2[C@@H]3[C@H](O)C[C@@H]4C[C@H](O)CC[C@]4(C)[C@H]3CC[C@]12C,85% and 97.6%
CO[C@H]1C[C@H](O[C@H]2[C@H](C)[C@@H](O[C@@H]3O[C@H](C)C[C@H](N(C)C)[C@H]3OC(C)=O)[C@@H](C)C[C@@]3(CO3)C(=O)[C@H](C)[C@@H](OC(C)=O)[C@@H](C)[C@@H](C)OC(=O)[C@@H]2C)O[C@@H](C)[C@@H]1OC(C)=O,98.5%
Nc1cc(N2CCCCC2)nc(N)[n+]1[O-],106%

# For quick reference, copied from above (study 2):
SMILES,remaining activity [%]
CC(C)N(CCC(=O)c1ccc2ccccc2c1)Cc1ccccc1,92.4
CC(C)n1cnc2c(Nc3cccc(Cl)c3)nc(NCCO)nc21,94.1
C[C@@H](N)[C@H]1CC[C@H](C(=O)Nc2ccncc2)CC1,102
c1cc(-c2cnn3cc(-c4ccc(OCCN5CCCCC5)cc4)cnc23)ccn1,31.4
CNc1cc2c(Nc3cccc(Br)c3)ncnc2cn1,103
NC(=O)c1cccc(-c2cc(Nc3ccc(OC(F)(F)F)cc3)ncn2)c1,90.1
O=Nc1c(-c2c(O)[nH]c3ccccc23)[nH]c2ccccc12,99.4
FC(F)(F)c1ccc(/C=C/c2nc(COc3ccc(CCCCn4ccnn4)cc3)co2)cc1,97.2
O=C(c1ccccc1)c1ccc(N2CCOCC2)cc1O,89.1
CCN(CC)CCCCN1c2ccccc2Oc2ccc(Cl)cc21,90.5
